Measurements gathered from unrelated publications.
Parts stem from different laboratories: compare values within a part only.
Sequence of UniProt Q8TDR2 (whole entry, looked up): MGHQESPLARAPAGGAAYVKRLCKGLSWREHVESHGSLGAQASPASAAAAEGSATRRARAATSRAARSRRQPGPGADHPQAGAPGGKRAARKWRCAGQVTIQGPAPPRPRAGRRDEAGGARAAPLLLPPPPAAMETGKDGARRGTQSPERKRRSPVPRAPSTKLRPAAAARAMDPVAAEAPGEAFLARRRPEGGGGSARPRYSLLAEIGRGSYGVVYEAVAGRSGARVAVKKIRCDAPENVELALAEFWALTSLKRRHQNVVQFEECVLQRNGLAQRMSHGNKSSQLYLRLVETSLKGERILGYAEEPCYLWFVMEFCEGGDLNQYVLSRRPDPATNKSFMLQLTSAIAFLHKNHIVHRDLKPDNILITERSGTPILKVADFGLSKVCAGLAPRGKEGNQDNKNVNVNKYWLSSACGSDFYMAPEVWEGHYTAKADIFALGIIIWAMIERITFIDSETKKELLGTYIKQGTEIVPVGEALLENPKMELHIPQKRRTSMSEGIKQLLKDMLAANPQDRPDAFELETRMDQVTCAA
Sequence of UniProt Q9H4B4 (whole entry, looked up): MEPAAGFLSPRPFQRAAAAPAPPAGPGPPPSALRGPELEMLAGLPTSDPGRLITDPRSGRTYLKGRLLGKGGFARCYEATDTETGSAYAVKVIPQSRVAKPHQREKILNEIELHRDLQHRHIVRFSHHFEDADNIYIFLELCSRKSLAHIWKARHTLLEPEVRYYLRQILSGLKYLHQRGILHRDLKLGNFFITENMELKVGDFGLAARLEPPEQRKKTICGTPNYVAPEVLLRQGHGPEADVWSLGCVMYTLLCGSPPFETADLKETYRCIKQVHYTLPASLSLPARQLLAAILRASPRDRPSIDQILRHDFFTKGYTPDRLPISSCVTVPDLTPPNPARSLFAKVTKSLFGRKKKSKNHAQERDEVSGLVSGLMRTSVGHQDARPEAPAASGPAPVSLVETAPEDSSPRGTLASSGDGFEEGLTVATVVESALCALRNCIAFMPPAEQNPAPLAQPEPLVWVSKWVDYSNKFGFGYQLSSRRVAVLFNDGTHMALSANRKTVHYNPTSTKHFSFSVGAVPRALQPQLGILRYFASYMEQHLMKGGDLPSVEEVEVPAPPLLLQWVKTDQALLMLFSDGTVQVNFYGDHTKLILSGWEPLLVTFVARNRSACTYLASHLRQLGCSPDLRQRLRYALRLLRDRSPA
Sequence of UniProt P53667 (whole entry, looked up): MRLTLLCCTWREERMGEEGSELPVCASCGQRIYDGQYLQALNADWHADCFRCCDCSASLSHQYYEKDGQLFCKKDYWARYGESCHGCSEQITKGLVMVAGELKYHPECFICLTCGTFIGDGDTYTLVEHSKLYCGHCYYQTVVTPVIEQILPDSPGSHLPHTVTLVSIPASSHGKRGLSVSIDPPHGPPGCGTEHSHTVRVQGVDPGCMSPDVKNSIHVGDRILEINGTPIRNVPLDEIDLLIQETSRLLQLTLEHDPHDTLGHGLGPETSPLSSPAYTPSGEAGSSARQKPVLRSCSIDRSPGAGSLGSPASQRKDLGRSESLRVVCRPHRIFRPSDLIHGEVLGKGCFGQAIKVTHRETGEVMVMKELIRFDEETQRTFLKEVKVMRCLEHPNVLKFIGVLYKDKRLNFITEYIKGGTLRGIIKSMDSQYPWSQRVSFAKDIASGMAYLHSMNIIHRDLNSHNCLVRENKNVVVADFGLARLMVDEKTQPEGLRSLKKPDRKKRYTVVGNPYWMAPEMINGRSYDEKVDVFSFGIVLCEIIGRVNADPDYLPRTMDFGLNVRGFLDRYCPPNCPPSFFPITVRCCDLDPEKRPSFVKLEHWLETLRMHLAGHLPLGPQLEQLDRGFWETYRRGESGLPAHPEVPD

Block 1
Compound: CC(C)(O)c1cncc(-c2nc3ccc(F)cc3n2C2CC2)c1
Observed: cell-free assay
Method: competition with immobilised ligand
Concentration: 1 µM
target	remaining binding
EGFR (Homo sapiens, UniProt P00533, G719C)	100%
STK35 (Homo sapiens, UniProt Q8TDR2)	100%
PLK3 (Homo sapiens, UniProt Q9H4B4)	100%
LIM domain kinase 1 (LIMK1, Homo sapiens, UniProt P53667)	100%

Block 2
Target: Serine/threonine-protein kinase haspin (HASPIN, Homo sapiens, UniProt Q8TF76)
Sequence of UniProt Q8TF76 (whole entry, looked up): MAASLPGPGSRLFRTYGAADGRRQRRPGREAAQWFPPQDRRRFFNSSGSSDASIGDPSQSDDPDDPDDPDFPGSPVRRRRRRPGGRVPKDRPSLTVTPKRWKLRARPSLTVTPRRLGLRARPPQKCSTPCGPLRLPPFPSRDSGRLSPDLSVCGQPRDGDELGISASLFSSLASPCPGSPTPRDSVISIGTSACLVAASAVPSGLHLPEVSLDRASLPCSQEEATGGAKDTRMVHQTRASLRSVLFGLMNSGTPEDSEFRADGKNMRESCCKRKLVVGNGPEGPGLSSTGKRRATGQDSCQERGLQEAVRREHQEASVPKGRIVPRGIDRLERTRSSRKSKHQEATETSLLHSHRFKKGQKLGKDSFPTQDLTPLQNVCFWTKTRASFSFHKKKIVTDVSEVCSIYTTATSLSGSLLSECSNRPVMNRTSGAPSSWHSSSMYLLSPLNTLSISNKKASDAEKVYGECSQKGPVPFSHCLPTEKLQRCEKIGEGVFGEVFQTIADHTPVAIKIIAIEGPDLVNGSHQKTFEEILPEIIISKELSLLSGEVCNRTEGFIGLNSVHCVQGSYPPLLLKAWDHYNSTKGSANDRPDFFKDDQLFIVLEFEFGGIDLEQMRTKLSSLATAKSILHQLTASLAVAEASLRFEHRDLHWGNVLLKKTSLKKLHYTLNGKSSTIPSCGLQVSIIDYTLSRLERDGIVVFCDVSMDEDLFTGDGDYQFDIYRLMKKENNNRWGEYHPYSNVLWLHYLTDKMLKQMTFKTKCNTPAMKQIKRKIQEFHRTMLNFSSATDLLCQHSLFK
Observed: enzyme activity
Action: inhibitor
Concentration: 0.5 µM
Relative to: control
SMILES	remaining activity [%]
Cn1sc(=O)n(Cc2ccccc2)c1=O	99
Cc1ccc(Nc2nccc(N(C)c3ccc4c(C)n(C)nc4c3)n2)cc1S(N)(=O)=O	90.4
O=C(Nc1cccc(Nc2cc(Nc3cccc(C(F)(F)F)c3)ncn2)c1)C1CC1	96.4
Oc1ccc(-c2nc(-c3ccncc3)c(-c3ccc(F)cc3)[nH]2)cc1	86.9
COc1ccc(CNC(=O)Nc2ncc([N+](=O)[O-])s2)cc1	90
O=C1NC(=O)C(c2cn(CCCO)c3ncccc23)=C1c1cnccn1	91.9
CNC(=O)c1cc(Oc2ccc(NC(=O)Nc3ccc(Cl)c(C(F)(F)F)c3)cc2)ccn1	99.3
COc1cc2ncnc(Nc3ccc(F)c(Cl)c3)c2cc1OCCCN1CCOCC1	84
Cc1ccc(NC(=O)c2ccc(CN3CCN(C)CC3)cc2)cc1Nc1nc(-c2cccnc2)cs1	100
Nc1ccc2ncnc(NCCc3ccc(Oc4ccccc4)cc3)c2c1	96.9
O=C(CCCc1ccc(-c2ccccc2F)cc1)Nc1ccc(O)cc1	94.7
Cc1nc(-c2ccccc2)c(-c2ccncc2)o1	87.6
COc1cc2ncnc(Nc3ccc(Oc4ccccc4)cc3)c2cc1OC	92
COc1ccc(OC)c2c(=S)c3ccccc3[nH]c12	89.2

Block 3
Target: Prothrombin, mature alpha-thrombin (F2, Homo sapiens, UniProt P00734)
Method: aptamer microarray, sandwich
Molecule type: DNA with 2'F-ANA
Matrix: in vitro
Concentration: 200 nM
Setting: whole 15-mer aptamer, many near background
Together with: Cy3 exosite-II aptamer, 400 nM
Direction: higher = stronger binding
Strand: GGTTGGTGTGGTTGG
Modification	mean fluorescence intensity [a.u.]
2'F-ANA at 5 6 7 9 13 14 15	45.7
2'F-ANA at 1 3 6 9 12 13 14 15	93.5
2'F-ANA at 3 5 7 8 10 11 12 13 14 15	57.1
2'F-ANA at 1 7 8 10 12 13 14 15	49.4
2'F-ANA at 1 3 7 9 12 13 15	454
2'F-ANA at 3 5 8 10 11 12 13 14	54.7
2'F-ANA at 1 4 6 7 8 9 15	138
2'F-ANA at 1 2 5 6 7 9 12	142

Single results of other studies
Method: cross-linking MS
Substance	partner	matrix	setting	together with	measurement	value
DNAH8 (Homo sapiens, UniProt Q96JB1)	SRRT (Homo sapiens, UniProt Q9BXP5)	cell fractions	–	DSSO	cross-linked residues	K1720 to K208
PSMG1 (Homo sapiens, UniProt O95456)	PSMA1 (Homo sapiens, UniProt P25786)	–	hits only	–	interaction screen	cross-linked
SEPTIN2 (Homo sapiens, UniProt Q15019)	SEPTIN11 (Homo sapiens, UniProt Q9NVA2)	–	hits only	–	interaction screen	cross-linked
SNRPA1 (Homo sapiens, UniProt P09661)	SF3A1 (Homo sapiens, UniProt Q15459)	–	hits only	–	interaction screen	cross-linked
